Measurements from different studies.
Lines come from different studies, so protocols differ.
Technique: steady-state kinetics
B1: GAR synthetase (Cryptococcus neoformans, UniProt J9VYP5); chain MPEITAFPQPKSDLSILLLGAGGREHALAFKLAQSSRVARIVVCPGNGGTALMGGKVSNLALPWGAPPAFRSIVEWAQKENIDLVVPGPEQPLVDGVEGAFKKVGIPVFGPSPAAAMLEGSKSLSKEFMARHNIPTAAFRSFTSTQYEDAVAYIKSKPFTSGRSVIKASGLAAGKGVLIPETDEEAFAALKSVMVDKEFGDAGDEVVVEEYLSGPEISVLAFSDGYTIVPMPAAQDHKRIGEGDTGLNTGGMGAYAPAPIATKEIMERCVKDVLEPTIKGMREDGYPFVGMLFTGFMITADGPRVLEYNVRFGDPETQALMLLLDEQTDLAEVLLACVERRLDSIKLGYKQGYAVSVVLASEGYPGSYPKGLPMTLNPTPEGVEVFHAGTKRSDNVTVTDGGRVLAVCASAPTLRAAVDLAYSGISQISFQGQTFRRDIAYRALSSEPPAEP
B2: dihydrodipicolinate synthase homolog (Oceanobacillus iheyensis, UniProt Q8EMJ7); chain MDYGEFSKRFSTISGINIVPFLEGTREIDWKGLDDNVEFLLQNGIEVIVPNGNTGEFYALTIEEAKQVATRVTELVNGRATVVAGIGYSVDTAIELGKSAIDSGADCVMIHQPVHPYITDAGAVEYYRNIIEALDAPSIIYFKDAHLSDDVIKELAPLDKLVGIKYAINDIQRVTQVIRAVPKSSNVAFICGTAEKWAPFFYHAGAVGFTSGLVNVFPQKSFALLEALEEGNQEKIWDVWEDVVPFEDLRAKHNNGNNVVIIKEAMEQLGLRAGVTREPVNPLSPNDRLELEELLKSWNTQEVR
B3: DAO1 (Trigonopsis variabilis, UniProt Q99042); chain MAKIVVIGAGVAGLTTALQLLRKGHEVTIVSEFTPGDLSIGYTSPWAGANWLTFYDGGKLADYDAVSYPILRELARSSPEAGIRLISQRSHVLKRDLPKLEVAMSAICQRNPWFKNTVDSFEIIEDRSRIVHDDVAYLVEFRSVCIHTGVYLNWLMSQCLSLGATVVKRRVNHIKDANLLHSSGSRPDVIVNCSGLFARFLGGVEDKKMYPIRGQVVLVRNSLPFMASFSSTPEKENEDEALYIMTRFDGTSIIGGCFQPNNWSSEPDPSLTHRILSRALDRFPELTKDGPLDIVRECVGHRPGREGGPRVELEKIPGVGFVVHNYGAAGAGYQSSYGMADEAVSYVERALTRPNL
B4: hdhb (Clostridium sardiniense, UniProt G9FRD6); chain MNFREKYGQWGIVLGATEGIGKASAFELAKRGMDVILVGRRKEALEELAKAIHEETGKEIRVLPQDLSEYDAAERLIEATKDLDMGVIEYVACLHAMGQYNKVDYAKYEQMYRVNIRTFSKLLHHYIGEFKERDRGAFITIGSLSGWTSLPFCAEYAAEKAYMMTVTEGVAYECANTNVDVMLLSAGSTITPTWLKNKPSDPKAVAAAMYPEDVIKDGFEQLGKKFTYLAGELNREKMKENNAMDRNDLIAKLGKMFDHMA
Chain of UniProt P22106 (whole entry, looked up): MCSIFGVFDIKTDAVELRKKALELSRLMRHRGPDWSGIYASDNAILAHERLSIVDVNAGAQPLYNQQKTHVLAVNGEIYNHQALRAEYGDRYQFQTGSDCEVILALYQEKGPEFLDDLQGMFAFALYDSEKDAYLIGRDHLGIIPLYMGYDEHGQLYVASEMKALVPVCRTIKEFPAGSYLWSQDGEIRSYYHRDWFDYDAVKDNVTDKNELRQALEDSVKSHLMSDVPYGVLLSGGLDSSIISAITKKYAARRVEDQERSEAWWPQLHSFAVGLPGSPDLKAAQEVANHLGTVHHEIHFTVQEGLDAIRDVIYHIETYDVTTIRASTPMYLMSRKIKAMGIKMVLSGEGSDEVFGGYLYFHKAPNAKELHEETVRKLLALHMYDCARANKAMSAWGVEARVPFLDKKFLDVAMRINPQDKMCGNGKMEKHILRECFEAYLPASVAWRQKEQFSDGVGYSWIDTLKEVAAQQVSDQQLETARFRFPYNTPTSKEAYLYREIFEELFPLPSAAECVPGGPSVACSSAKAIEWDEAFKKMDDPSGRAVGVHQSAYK
Chain of UniProt Q11203 (whole entry, looked up): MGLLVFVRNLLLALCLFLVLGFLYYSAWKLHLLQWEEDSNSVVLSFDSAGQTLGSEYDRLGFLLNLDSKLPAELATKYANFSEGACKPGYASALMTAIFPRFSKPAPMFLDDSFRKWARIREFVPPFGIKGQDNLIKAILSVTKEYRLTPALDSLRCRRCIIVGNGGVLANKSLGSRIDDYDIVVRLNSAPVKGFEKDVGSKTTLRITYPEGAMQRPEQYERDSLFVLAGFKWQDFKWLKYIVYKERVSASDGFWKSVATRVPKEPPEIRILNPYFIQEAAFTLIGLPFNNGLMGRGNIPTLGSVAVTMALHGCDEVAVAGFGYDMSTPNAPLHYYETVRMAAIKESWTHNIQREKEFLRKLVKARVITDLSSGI
Chain of UniProt P34752 (whole entry, looked up): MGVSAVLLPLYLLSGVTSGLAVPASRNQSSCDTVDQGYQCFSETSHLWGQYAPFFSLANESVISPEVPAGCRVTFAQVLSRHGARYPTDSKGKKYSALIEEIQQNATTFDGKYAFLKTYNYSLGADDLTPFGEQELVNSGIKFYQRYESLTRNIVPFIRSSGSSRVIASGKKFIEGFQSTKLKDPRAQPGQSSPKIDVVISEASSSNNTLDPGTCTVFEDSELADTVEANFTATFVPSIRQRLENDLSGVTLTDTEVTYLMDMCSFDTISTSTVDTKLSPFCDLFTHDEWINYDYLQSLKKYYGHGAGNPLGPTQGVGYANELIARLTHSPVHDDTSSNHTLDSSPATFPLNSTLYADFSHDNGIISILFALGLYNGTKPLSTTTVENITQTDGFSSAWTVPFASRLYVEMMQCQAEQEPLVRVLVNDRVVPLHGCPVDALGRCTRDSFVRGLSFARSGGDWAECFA
Chain of UniProt P15424 (whole entry, looked up): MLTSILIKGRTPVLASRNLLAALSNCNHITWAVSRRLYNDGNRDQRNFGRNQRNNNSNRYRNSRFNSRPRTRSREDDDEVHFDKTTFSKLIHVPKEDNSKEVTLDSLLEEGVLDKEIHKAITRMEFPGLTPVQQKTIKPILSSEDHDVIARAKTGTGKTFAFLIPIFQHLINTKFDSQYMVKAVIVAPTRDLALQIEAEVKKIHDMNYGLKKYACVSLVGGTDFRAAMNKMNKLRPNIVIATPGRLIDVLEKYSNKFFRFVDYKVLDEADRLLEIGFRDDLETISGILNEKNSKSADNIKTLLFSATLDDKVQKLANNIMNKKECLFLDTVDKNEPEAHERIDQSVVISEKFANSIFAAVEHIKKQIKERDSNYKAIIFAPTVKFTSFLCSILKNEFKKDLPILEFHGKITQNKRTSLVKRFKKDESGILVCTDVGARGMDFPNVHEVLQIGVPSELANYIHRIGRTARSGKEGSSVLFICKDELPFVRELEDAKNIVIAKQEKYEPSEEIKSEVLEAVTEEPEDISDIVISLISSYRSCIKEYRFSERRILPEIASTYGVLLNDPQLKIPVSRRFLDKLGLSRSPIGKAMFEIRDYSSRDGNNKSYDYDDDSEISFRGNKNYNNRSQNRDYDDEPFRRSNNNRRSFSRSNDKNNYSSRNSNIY
Chain of UniProt H6U1I8 (whole entry, looked up): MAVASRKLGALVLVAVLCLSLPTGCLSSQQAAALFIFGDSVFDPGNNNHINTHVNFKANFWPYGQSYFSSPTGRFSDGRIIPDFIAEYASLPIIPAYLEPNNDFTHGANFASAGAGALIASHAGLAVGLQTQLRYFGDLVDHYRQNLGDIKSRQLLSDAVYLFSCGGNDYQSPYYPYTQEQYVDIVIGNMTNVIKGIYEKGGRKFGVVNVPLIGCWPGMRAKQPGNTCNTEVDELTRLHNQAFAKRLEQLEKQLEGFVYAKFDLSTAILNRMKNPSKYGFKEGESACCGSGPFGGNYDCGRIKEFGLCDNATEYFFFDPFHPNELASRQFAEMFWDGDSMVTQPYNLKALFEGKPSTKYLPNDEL

protein (Danio rerio, UniProt A0ACM8QCA3)  Km (C[C@H](CCCC(CO)CO)[C@H]1CC[C@H]2[C@@H]3[C@H](O)C[C@H]4C[C@H](O)CC[C@]4(C)[C@H]3C[C@H](O)[C@]12C; pH 7, 28 °C, substrate inhibition, together with: PAPS 14 µM): 9.47 µM
B1 (GAR synthetase)  Km (Nc1ncnc2c1ncn2[C@@H]1O[C@H](COP(=O)(O)OP(=O)(O)OP(=O)(O)O)[C@@H](O)[C@H]1O; pH 8, 37 °C, apparent): 52 µM
B2  Km (O=C(O)C(=O)C[C@@H](O)[C@H](O)C(=O)O; pH 8, together with: MgCl2 5 mM): 160 µM
protein (Triticum aestivum, UniProt G9M5S8)  Km (CC(C)=CCC/C(C)=C/CC/C(C)=C/CO[P@@](=O)(O)OP(=O)(O)O; 30 °C): 1.7 µM
enzyme (Tanacetum cinerariifolium, UniProt H6U1I8)  Km (C=C/C=C\CC1=C(C)[C@@H](O)CC1=O; pH 7.5, 25 °C): 376 µM
B3 (DAO1)  Km (Nc1ccc2nc3ccc(N)cc3[s+]c2c1; pH 8, 22 °C, apparent): 32 µM
PGDH2 (Oryza sativa, UniProt B7FAD2)  Km (O=C(O)[C@H](O)COP(=O)(O)O; pH 9, 25 °C, NaCl 0.1 M, apparent, together with: NAD+): 1210 µM
phyA (Aspergillus niger, UniProt P34752)  Km (O=P(O)(O)O[C@@H]1[C@H](OP(=O)(O)O)[C@H](O)[C@@H](O)[C@H](O)[C@H]1OP(=O)(O)O; pH 5, 37 °C): 223 µM
asnB (Escherichia coli, UniProt P22106)  Km (N[C@@H](CC(=O)O)C(=O)O; pH 8, 37 °C, apparent, together with: L-glutamine 20 mM): 580 µM
B4 (hdhb)  Km (NC(=O)c1ccc[n+]([C@@H]2O[C@H](COP(=O)(O)OP(=O)(O)OC[C@H]3O[C@@H](n4cnc5c(N)ncnc54)[C@H](OP(=O)(O)O)[C@@H]3O)[C@@H](O)[C@H]2O)c1; pH 8, 25 °C, cofactor varied): 33 µM
ST3GAL3 (Homo sapiens, UniProt Q11203)  Km (CC(=O)N[C@H]1[C@H](O[C@H]2[C@@H](O)[C@@H](CO)O[C@@H](O[C@H]3[C@H](O)[C@@H](O)[C@H](Oc4ccc([N+](=O)[O-])cc4)O[C@@H]3CO)[C@@H]2O)O[C@H](CO)[C@@H](O)[C@@H]1O[C@@H]1O[C@H](CO)[C@H](O)[C@H](O)[C@H]1O; pH 6, together with: CMP-Neu5Ac): 130 µM
MSS116 (Saccharomyces cerevisiae, UniProt P15424)  Km (Nc1ncnc2c1ncn2[C@@H]1O[C@H](COP(=O)(O)OP(=O)(O)OP(=O)(O)O)[C@@H](O)[C@H]1O; pH 7.5, 37 °C, together with: ATP): 100 µM
α-amino ester hydrolase (Xanthomonas campestris, UniProt Q8P8K4)  Km (COC(=O)[C@H](N)c1ccccc1; pH 7, 25 °C, phosphate 100 mM): 3700 µM

Excerpt of the above:
protein (Triticum aestivum, UniProt G9M5S8)  Km (CC(C)=CCC/C(C)=C/CC/C(C)=C/CO[P@@](=O)(O)OP(=O)(O)O; 30 °C): 1.7 µM
enzyme (Tanacetum cinerariifolium, UniProt H6U1I8)  Km (C=C/C=C\CC1=C(C)[C@@H](O)CC1=O; pH 7.5, 25 °C): 376 µM
